{"data": "Assay results pooled from the literature", "WD repeat-containing protein 91 WD40 domain, residues 392–747": "WD repeat-containing protein 91, WD40 domain, residues 392–747 (Homo sapiens, UniProt A4D1P6)", "Genome polyprotein NS3 helicase domain": "Genome polyprotein, NS3 helicase domain (Hepatitis C virus genotype 1b, UniProt Q9WMX2)", "ESR1": "Estrogen receptor (ESR1, Homo sapiens, UniProt P03372)", "WD repeat-containing protein 91": "WD repeat-containing protein 91 (Homo sapiens, UniProt A4D1P6)", "note": "Lines come from different studies, so protocols differ. Several values in a cell are separate wells, animals, samples, runs or records. ± marks the error that the study gave.", "sequence of UniProt Q16774 (whole entry, looked up)": "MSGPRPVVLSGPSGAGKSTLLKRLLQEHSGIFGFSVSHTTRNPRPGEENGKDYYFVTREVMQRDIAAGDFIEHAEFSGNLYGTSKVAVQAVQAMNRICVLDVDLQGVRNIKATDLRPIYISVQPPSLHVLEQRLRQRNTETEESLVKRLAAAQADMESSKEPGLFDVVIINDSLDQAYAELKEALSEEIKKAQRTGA", "sequence of UniProt P61204 (whole entry, looked up)": "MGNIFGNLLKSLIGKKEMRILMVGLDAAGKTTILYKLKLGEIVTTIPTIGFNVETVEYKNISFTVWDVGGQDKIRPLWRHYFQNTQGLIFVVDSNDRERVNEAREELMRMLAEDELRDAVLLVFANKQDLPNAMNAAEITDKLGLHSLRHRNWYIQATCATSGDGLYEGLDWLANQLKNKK", "sequence of UniProt A4D1P6 (whole entry, looked up)": "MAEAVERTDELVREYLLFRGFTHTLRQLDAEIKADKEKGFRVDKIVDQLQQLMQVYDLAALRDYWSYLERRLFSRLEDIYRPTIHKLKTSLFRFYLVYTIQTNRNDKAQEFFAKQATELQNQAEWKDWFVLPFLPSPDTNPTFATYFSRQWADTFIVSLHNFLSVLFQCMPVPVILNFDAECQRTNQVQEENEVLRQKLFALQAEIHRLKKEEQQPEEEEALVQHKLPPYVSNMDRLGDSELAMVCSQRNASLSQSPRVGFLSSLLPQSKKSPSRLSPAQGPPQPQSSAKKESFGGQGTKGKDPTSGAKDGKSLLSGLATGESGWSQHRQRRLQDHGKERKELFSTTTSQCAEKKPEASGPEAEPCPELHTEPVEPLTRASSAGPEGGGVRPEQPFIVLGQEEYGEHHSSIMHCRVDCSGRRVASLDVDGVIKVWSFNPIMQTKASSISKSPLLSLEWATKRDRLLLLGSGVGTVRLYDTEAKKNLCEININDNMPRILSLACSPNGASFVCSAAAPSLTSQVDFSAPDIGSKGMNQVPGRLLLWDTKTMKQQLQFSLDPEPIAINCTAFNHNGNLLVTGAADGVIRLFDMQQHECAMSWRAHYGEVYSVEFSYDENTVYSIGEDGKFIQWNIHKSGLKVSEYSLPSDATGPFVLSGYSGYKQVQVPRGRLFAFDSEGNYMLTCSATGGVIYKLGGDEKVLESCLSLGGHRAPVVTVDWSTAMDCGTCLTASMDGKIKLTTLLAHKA", "sequence of UniProt O76090 (whole entry, looked up)": "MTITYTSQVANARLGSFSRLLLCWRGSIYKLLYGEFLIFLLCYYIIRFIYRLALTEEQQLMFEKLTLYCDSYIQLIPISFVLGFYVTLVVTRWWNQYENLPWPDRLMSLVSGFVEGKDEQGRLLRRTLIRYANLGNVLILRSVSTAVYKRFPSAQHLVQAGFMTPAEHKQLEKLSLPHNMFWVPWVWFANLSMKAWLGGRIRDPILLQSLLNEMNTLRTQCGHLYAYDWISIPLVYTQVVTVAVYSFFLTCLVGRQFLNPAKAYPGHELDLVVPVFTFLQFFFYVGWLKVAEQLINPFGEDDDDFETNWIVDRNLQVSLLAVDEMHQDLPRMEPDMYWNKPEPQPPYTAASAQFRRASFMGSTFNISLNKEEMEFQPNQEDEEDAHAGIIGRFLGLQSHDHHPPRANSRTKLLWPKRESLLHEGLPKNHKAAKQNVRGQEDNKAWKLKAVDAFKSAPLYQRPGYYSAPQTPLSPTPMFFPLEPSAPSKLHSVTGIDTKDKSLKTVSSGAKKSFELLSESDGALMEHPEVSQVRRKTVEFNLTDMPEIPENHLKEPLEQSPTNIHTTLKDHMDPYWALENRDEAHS", "sequence of UniProt Q96D96 (whole entry, unmodified, looked up)": "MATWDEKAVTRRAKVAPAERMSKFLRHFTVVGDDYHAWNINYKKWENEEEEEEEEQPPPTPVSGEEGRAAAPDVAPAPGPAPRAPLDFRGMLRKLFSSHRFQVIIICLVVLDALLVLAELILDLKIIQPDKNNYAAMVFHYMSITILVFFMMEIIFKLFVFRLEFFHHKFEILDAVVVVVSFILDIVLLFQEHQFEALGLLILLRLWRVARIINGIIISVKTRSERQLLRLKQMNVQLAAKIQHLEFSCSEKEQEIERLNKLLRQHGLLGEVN"}
{"SMILES": "O=C(c1cc2cccn2cn1)N1CCN(C(=O)c2ccoc2)C(c2ccc(F)cc2)C1 (centres unmarked)", "target": "WD repeat-containing protein 91 WD40 domain, residues 392–747", "assay": "SPR", "setting": "45 µM", "quantity": "binding", "value": "-19% and -2%"}
{"SMILES": "CC[C@@H](C)[C@@H](NC(=O)[C@@H](Cc1ccc(O)cc1)NC(=O)[C@H]1CCCN1C(=O)[C@@H](CCCNC(=N)N)NC(=O)[C@H](N)Cc1c[nH]cn1)C(=O)N[C@H](C)C(=O)N[C@H](Cc1c[nH]cn1)C(=O)N[C@H](CCCNC(=N)N)C(=O)N[C@@H](C(=O)N[C@H](Cc1ccc(O)cc1)C(=O)N[C@H](CO)C(=O)N[C@H](Cc1ccccc1)C(N)=O)C(C)C", "target": "Transferrin receptor protein 1 (Tfrc, Mus musculus, UniProt Q62351)", "assay": "flow cytometry", "system": "DC2.4", "setting": "2 h, pH 6, replicate 1, unit not given", "how to read": "baseline: 0 h", "quantity": "surface TFRC expression", "value": 0.996}
{"SMILES": "Cl.c1ccc2nc(C3=NCCN3)ccc2c1", "target": "Genome polyprotein NS3 helicase domain", "assay": "DNA binding, inhibitor", "system": "hepatitis C virus", "setting": "100 µM, with: Cy5-dT15 DNA", "quantity": "inhibition", "value": "0%"}
{"SMILES": "N#Cc1ccc(Nc2cccc(C(=O)NC3CCc4cc(F)ccc43)c2)cc1 (centres unmarked)", "target": "WD repeat-containing protein 91 WD40 domain, residues 392–747", "assay": "SPR", "setting": "45 µM", "quantity": "binding", "value": "71% and 93%"}
{"SMILES": "C=CC(=O)N1CCC(COCC(=O)N2CCN(c3nc(-c4cnc(N)nc4C(F)F)nc(N4CCOC[C@@H]4C)n3)CC2)CC1", "target": "Fibroblast growth factor receptor 2 (FGFR2, Homo sapiens, UniProt P21802)", "assay": "KINOMEscan", "setting": "1 µM", "quantity": "remaining binding", "value": "100%"}
{"SMILES": "O=C(COP(=O)(O)O)[C@@H](O)[C@H](O)[C@H](O)COP(=O)(O)O", "target": "ADP-ribosylation factor 3 (ARF3, Homo sapiens, UniProt P61204)", "assay": "thermal proteome profiling, item: ARF3", "system": "HepG2 cell lysate", "setting": "concentration not given, 57 over 37 °C", "how to read": "baseline: compound over control", "quantity": "thermal stability ratio", "value": "0.6 and 0.519"}
{"SMILES": "Nc1nc2c(ncn2[C@@H]2O[C@H](COP(=O)(O)O)[C@@H](O)[C@H]2O)c(=O)[nH]1", "target": "GUK1 (Homo sapiens, UniProt Q16774)", "assay": "enzyme activity, NADH-coupled", "setting": "1000 µM, with: NaCl 150 mM", "quantity": "reaction velocity", "value": "0.0733 µM/s and 0.0864 µM/s and 0.079 µM/s"}
{"SMILES": "CCCCCCCCC(=O)c1cc(O)c(O)c(O)c1", "target": "Nuclear receptor subfamily 4 group A member 3, ligand-binding domain (Homo sapiens, UniProt Q92570)", "assay": "reporter gene, Gal4 hybrid reporter", "setting": "10 µM", "how to read": "baseline: vehicle", "quantity": "activation", "value": "2.14 fold"}
{"SMILES": "O=C1Cc2c([nH]c3ccc(Br)cc23)-c2ccccc2N1", "target": "Genome polyprotein NS3 helicase domain", "assay": "DNA binding, inhibitor", "system": "hepatitis C virus", "setting": "100 µM, with: Cy5-dT15 DNA", "quantity": "inhibition", "value": "1%"}
{"SMILES": "CC[C@H](C)[C@H](NC(=O)[C@H](CCCCN)NC(=O)CNC(=O)[C@@H](NC(=O)[C@@H](NC(=O)[C@H](CCSC)NC(=O)[C@H](Cc1c[nH]cn1)NC(=O)CN)[C@@H](C)O)C(C)C)C(=O)N[C@@H](Cc1ccc(O)cc1)C(=O)N[C@@H](C)C(=O)N[C@@H](C)C(=O)N[C@@H](CCSC)C(=O)N[C@@H](CCSC)C(=O)N[C@@H](C)C(=O)N[C@@H](CCSC)C(=O)N[C@@H](CCC(=O)O)C(=O)N[C@@H](Cc1ccc(O)cc1)C(=O)N[C@@H](Cc1ccc(O)cc1)C(=O)N[C@@H](CCCNC(=N)N)C(=O)N[C@@H](CCC(N)=O)C(=O)N[C@@H](CO)C(=O)N[C@@H](CCCCN)C(=O)N[C@@H](C)C(=O)N[C@@H](CCCCN)C(=O)N[C@@H](CCCCN)C(=O)N[C@@H](CC(C)C)C(=O)N[C@@H](CCC(N)=O)C(=O)N[C@@H](C)C(=O)N[C@@H](CCSC)C(=O)N[C@@H](CCCNC(=N)N)C(=O)O", "target": "Calmodulin-1, Ca2+-bound C-lobe (CALM1, Homo sapiens, UniProt P0DP23)", "assay": "binding, isothermal titration calorimetry", "setting": "pH 7.4, 15 °C, C-lobe, CaV2.1 IQ domain, with: Ca2+", "quantity": "ΔH", "value": "-3.27 ± 0.01 kcal/mol"}
{"SMILES": "O=c1cc(-c2ccc(O)cc2)oc2cc(O)c([C@@H]3O[C@H](CO)[C@@H](O)[C@H](O)[C@H]3O)c(O)c12", "target": "ESR1", "assay": "array formation", "system": "PRL-HeLa", "how to read": "baseline: EC50 ERβ over EC50 ERα", "quantity": "selectivity ratio", "value": 1.02}
{"SMILES": "COc1cc(/C=C/C(=O)C(=Cc2ccc([N+](=O)[O-])cc2)C(=O)/C=C/c2ccc(O)c(OC)c2)ccc1O", "target": "haemin", "assay": "binding, isothermal titration calorimetry", "setting": "pH 7.4, 37 °C", "quantity": "ΔG", "value": "-33.5 ± 1.85 kJ/mol"}
{"SMILES": "Nc1c(Br)cc(Br)cc1CN[C@H]1CC[C@H](O)CC1", "target": "Glutamate receptor 2 (Homo sapiens, UniProt P42262)", "assay": "ion current, positive allosteric modulator, SyncroPatch patch clamp", "system": "HEK293", "setting": "3 µM", "quantity": "potentiation", "value": "92%"}
{"SMILES": "COC(=O)CCc1c(C)nn(-c2ccc(C(=O)N3CCC(C#N)CC3)cc2)c1C", "target": "WD repeat-containing protein 91 WD40 domain, residues 392–747", "assay": "SPR", "setting": "45 µM", "quantity": "binding", "value": "-15% and 1%"}
{"SMILES": "Nc1ncnc2c1ncn2[C@@H]1O[C@H](COP(=O)(O)CP(=O)(O)OP(=O)(O)O)[C@@H](O)[C@H]1O", "target": "P2X purinoceptor 1 (P2RX1, Homo sapiens, UniProt P51575, K136A)", "assay": "saturation binding", "system": "HEK293", "setting": "52 nM", "quantity": "specific binding", "value": "2180 CCPM and 2160 CCPM"}
{"SMILES": "CC(=O)Nc1ccc(O)cc1", "target": "Bromodomain-containing protein 4 (BRD4, Homo sapiens, UniProt O60885)", "assay": "19F NMR, item: tyrosine 97", "setting": "48 µM", "how to read": "baseline: free protein", "quantity": "chemical shift change", "value": "-0.064 ppm"}
{"SMILES": "CS(=O)(=O)O.Cn1cc(C(F)(F)F)nc1-c1ccc(OCC(O)CNCCOc2ccc(O)c(C(N)=O)c2)cc1 (centres unmarked)", "target": "Genome polyprotein NS3 helicase domain", "assay": "DNA binding, inhibitor", "system": "hepatitis C virus", "setting": "100 µM, with: Cy5-dT15 DNA", "quantity": "inhibition", "value": "0%"}
{"SMILES": "Nc1ccc(C(=O)O)cc1", "target": "BEST1 (Homo sapiens, UniProt O76090)", "assay": "whole-cell patch clamp", "system": "HEK293 transiently expressing channel", "setting": "concentration not given, membrane potential 40 mV", "quantity": "current density", "value": "39.9 pA/pF and 25.2 pA/pF and 28.8 pA/pF and 49.6 pA/pF and 52 pA/pF and 23.5 pA/pF and 42.9 pA/pF"}
{"SMILES": "CC[C@@H]1[C@H](F)C(=O)N[C@@H]1COc1nccc2cc(C(N)=O)c(OC)cc12", "target": "Serine/threonine-protein kinase TAO2 (TAOK2, Homo sapiens, UniProt Q9UL54)", "assay": "ATP probe binding, KiNativ profiling, item: Lys2 probe site", "system": "THP-1 cell lysate", "setting": "0.01 mM", "quantity": "inhibition", "value": "17.1%"}
{"SMILES": "Nc1c(S(=O)(=O)O)cc(Nc2ccc(Nc3nc(Cl)nc(Nc4cccc(S(=O)(=O)O)c4)n3)c(S(=O)(=O)O)c2)c2c1C(=O)c1ccccc1C2=O", "target": "Genome polyprotein NS3 helicase domain", "assay": "DNA binding, inhibitor", "system": "hepatitis C virus", "setting": "100 µM, with: Cy5-dT15 DNA", "quantity": "inhibition", "value": "86%"}
{"SMILES": "O=C(NC1CCCS(=O)(=O)c2ccccc21)c1ccc2nc(O)cnc2c1 (centres unmarked)", "target": "WD repeat-containing protein 91", "assay": "binding, SPR steady state", "setting": "0.2344 µM", "quantity": "SPR response", "value": "2.02 RU"}
{"SMILES": "CC[C@H](C)[C@H](N)C(=O)O", "target": "N-alpha-acetyltransferase 80 (NAA80, Homo sapiens, UniProt Q93015)", "assay": "substrate, DTNB", "setting": "2 mM, 30 min, 37 °C, with: acetyl-CoA 500 µM", "quantity": "product formation", "value": "0.18 µM"}
{"SMILES": "CCOc1ccc2c(C(F)(F)F)cc(=O)oc2c1", "target": "cytochrome P450 2B4 F297A (rabbit)", "assay": "O-deethylation, substrate", "quantity": "Km", "value": "20.4 ± 3.1 µM"}
{"SMILES": "N=C(N)Nc1nc2ccccc2[nH]1", "target": "Voltage-gated hydrogen channel 1 (HVCN1, Homo sapiens, UniProt Q96D96, F149W)", "assay": "proton current, inhibitor, inside-out patch clamp", "quantity": "Hill coefficient", "value": "0.9 ± 0.04"}
{"SMILES": "COc1cc(Nc2ncc3c(n2)-c2ccc(Cl)cc2C(c2c(F)cccc2OC)=NC3)ccc1C(=O)O", "target": "PRKG2", "assay": "kinase activity", "setting": "1 µM", "quantity": "remaining activity", "value": "104%"}
{"SMILES": "CCCCC1(C2CCCC2)Cc2cc(OCC(=O)O)c(Cl)c(Cl)c2C1=O (stereo in doubt)", "target": "Genome polyprotein NS3 helicase domain", "assay": "DNA binding, inhibitor", "system": "hepatitis C virus", "setting": "100 µM, with: Cy5-dT15 DNA", "quantity": "inhibition", "value": "0%"}
{"SMILES": "C[C@]12CC[C@@H]3c4ccc(O)cc4C[C@@H](CCCCCCCCC[S+]([O-])CCCC(F)(F)C(F)(F)F)[C@H]3[C@@H]1CC[C@@H]2O (some centres unmarked)", "target": "ESR1", "assay": "antagonist, CALUX reporter", "system": "U2OS", "setting": "3e-09 µg/mL", "quantity": "antagonist response", "value": "48.8%"}
{"SMILES": "O=C1NC(=O)/C(=C\\c2ccc3nccnc3c2)S1", "target": "Genome polyprotein NS3 helicase domain", "assay": "DNA binding, inhibitor", "system": "hepatitis C virus", "setting": "100 µM, with: Cy5-dT15 DNA", "quantity": "inhibition", "value": "0%"}
{"SMILES": "CCn1c(=O)[nH]c2cc(C(=O)NC(c3ccc(F)cc3)c3cnn(C)c3)ccc2c1=O (centres unmarked)", "target": "WD repeat-containing protein 91", "assay": "binding, SPR steady state", "setting": "0.2344 µM", "quantity": "SPR response", "value": "2.77 RU"}
